# Measured values collected from several papers.
# Compare with care: the assays were run in different laboratories. “And” joins repeats or separate records; there may be more than shown. Numbers after ± are the reported error.
SMILES,cell line,test,setting,how to read,quantity,value
CC(C)CC(O)(CC(C)C)c1cn(C(=O)N2CCCC2)nn1,mouse T-cells,"N-terminal labeled proteins, N-terminal enrichment proteomics, refers to: FBXO7","1 nM, 6 h",baseline: DMSO,SILAC ratio,4.27 ± 0.11
COC(=O)C1=CO[C@@H](O)[C@@H]2C(Cn3cc(CN4C(=O)c5ccccc5C4=O)nn3)=CC[C@H]12,SK-N-SH,"neuroprotection, MTT","0.075 µM, 24 h, together with: 250 µM H2O2",,viability,70.1 ± 1.5%
CC1(C(=O)O)CCCC2(C)C1CCC1(C)c3cocc3CCC12 (centres unmarked),LNCaP,"qRT-PCR, refers to: AR","10 µM, absence of androgen",,mRNA level,decreased
CN1C(=O)C2(Cc3ccc(CC45SSC(CO)(C(=O)N4C)N(C)C5=O)cc3)SSC1(CO)C(=O)N2C (racemic),MCF7 cells,microarray,"600 nM, fold change at least 2.0, together with: DFO 300 µM",baseline: DFO alone,number of up-regulated transcripts,290
COC(=O)C1=CO[C@@H](OC(C)=O)[C@@H]2C(Cn3cc(CCO[Si](C)(C)C(C)(C)C)nn3)=CC[C@H]12,SK-N-SH,"neuroprotection, MTT","0.15 µM, 24 h, together with: 250 µM H2O2",,viability,68.6 ± 0.15%
CC[C@H](C)[C@@H]1NC(=O)[C@H](Cc2cn(CCc3c(C)[nH]c4cc(Cl)cc(Cl)c34)nn2)NC(=O)[C@@H](CC(N)=O)NC(=O)[C@H](CCCNC(=N)N)NC(=O)[C@H](Cc2ccccc2)NC(=O)[C@@H](CC(C)C)NC(=O)[C@H](C)NC(=O)c2cc3cc(c2)C(=O)NC[C@@H](C(=O)N[C@@H](CCCCN)C(N)=O)NC(=O)[C@H](CCCNC(=N)N)NC(=O)[C@H](CCCNC(=N)N)NC(=O)[C@H](CCCNC(=N)N)NC(=O)[C@H](CCCNC(=N)N)NC(=O)[C@H](Cc2ccc4ccccc4c2)NC(=O)[C@H](Cc2ccccc2)NC(=O)[C@H](CCCCNC3=O)NC(=O)[C@H](CC(=O)O)NC1=O,H1299,annexin V/propidium iodide flow cytometry,"10 µM, 12 h",baseline: cells,dead cells,~5%
C[OH+][Cu-2]12[O]C(c3cn(-c4ccccc4)nc3-c3ccc(Cl)cc3)=N[N+]1=C(C)c1c(cc(C)oc1=O)[O]2 (centres unmarked),A549 and Vero cells,"cell viability, MTT",,baseline: IC50 Vero over IC50 A549,selectivity index,> 13 and 13.5
COC(=O)C1=CO[C@@H](O)[C@@H]2C(Cn3cc(-c4ccc(OC)cc4)nn3)=CC[C@H]12,SK-N-SH,"neuroprotection, MTT","0.075 µM, 24 h, together with: 250 µM H2O2",,viability,54.9 ± 2.5%
CC/C=C\C/C=C\C/C=C\C/C=C\C/C=C\C/C=C\CCC(=O)Nc1ccn(C2OC(CO)C(O)C2(F)F)c(=O)n1 (centres unmarked),786-0,NCI-60 screen,,,CC50,> 100 µM
CC[C@H](C)[C@H](NC(=O)[C@H](CCCCN)NC(=O)[C@@H](NC(=O)[C@H](CCC(N)=O)NC(=O)[C@@H](N)CCCNC(=N)N)[C@@H](C)CC)C(=O)N[C@@H](Cc1c[nH]c2ccccc12)C(=O)N[C@@H](Cc1ccccc1)C(=O)N[C@@H](CCC(N)=O)C(=O)N[C@@H](CC(N)=O)C(=O)N[C@@H](CCCNC(=N)N)C(=O)N[C@@H](CCCNC(=N)N)C(=O)N[C@@H](CCSC)C(=O)N[C@@H](CCCCN)C(=O)N[C@@H](Cc1c[nH]c2ccccc12)C(=O)N[C@@H](CCCCN)C(=O)N[C@@H](CCCCN)C(=O)N[C@@H](CO)C(=O)N[C@@H](Cc1c[nH]c2ccccc12)C(=O)N[C@H](C(=O)N[C@@H](Cc1c[nH]c2ccccc12)C(=O)N[C@@H](CCC(=O)O)C(=O)N[C@@H](CCCCN)C(=O)N[C@@H](CCCCN)C(=O)N[C@@H](CC(C)C)C(=O)N[C@@H](CCC(=O)O)C(=O)N[C@H](C(=O)N[C@@H](C)C(=O)N[C@H](C(=O)N[C@@H](CC(N)=O)C(=O)N[C@@H](CC(C)C)C(=O)N[C@@H](C)C(=O)N[C@@H](Cc1c[nH]c2ccccc12)C(=O)N[C@H](C(=O)N[C@@H](C)C(=O)NCC(=O)N[C@@H](CC(N)=O)C(=O)N[C@@H](CO)C(=O)N[C@@H](CC(N)=O)C(=O)N[C@@H](CCCCN)C(=O)N[C@@H](Cc1c[nH]c2ccccc12)C(=O)N[C@H](C(=O)N[C@@H](Cc1c[nH]c2ccccc12)C(=O)N[C@@H](CCCCN)C(=O)O)[C@@H](C)O)[C@@H](C)O)C(C)C)[C@@H](C)O)[C@@H](C)O,MEC1,acridine orange/ethidium bromide,"concentration not given, 40 min",,apoptotic cells,> 95%
CCC[P+](c1ccccc1)(c1ccccc1)c1ccccc1,SK-OV-3,"cell growth or viability, MTT",72 h,,GI50,4.08 µM
CCCCCCCCC1(CCCCCCCC)c2cc(-c3cc4[n+]5c(c3)-c3cccc[n+]3[Ir-3]536([c]5c(c(C)cc(C)c5-c5cccc[n+]53)-c3cccc[n+]36)[n+]3ccccc3-4)ccc2-c2ccc(-c3cc4[n+]5c(c3)-c3cccc[n+]3[Ir-3]536([c]5c(c(C)cc(C)c5-c5cccc[n+]53)-c3cccc[n+]36)[n+]3ccccc3-4)cc21.F[P-](F)(F)(F)(F)F.F[P-](F)(F)(F)(F)F.F[P-](F)(F)(F)(F)F.F[P-](F)(F)(F)(F)F,SK-MEL-28,"cell viability, resazurin","16 h before light, red light 100 J/cm2",,EC50,49.5 ± 0.1 µM
COC(=O)C1=CO[C@@H](OC(C)=O)[C@@H]2C(Cn3cc(-c4ccc(F)cc4)nn3)=CC[C@H]12,SK-N-SH,"neuroprotection, MTT","0.3 µM, 24 h, together with: 250 µM H2O2",,viability,58.6 ± 0.9%
O=C(CN1CCN(c2cc3c(cc2F)c(=O)c(C(=O)O)cn3C2CC2)CC1)Nc1ccc(Cl)cc1,LLC-PK1 wild type,"inhibitor, refers to: Oregon Green paclitaxel","4 µM, together with: Oregon Green paclitaxel 400 nM",,intracellular accumulation,no effect
CC(C)c1cnn2c(NCc3ccccc3)cc(N[C@@H](CO)[C@H](O)CO)nc12,HCT-116 resistant to compound,"cell growth, sulforhodamine B","336 h, 2 weeks selection",baseline: resistant over parental HCT-116,resistance factor,10 fold
C=CCc1cc(OC)c(OC)c(OC)c1OC,SK-OV-3,"cell growth or viability, MTT",72 h,,GI50,> 250 µM
CCCCCCCCCCOCc1cn(CC2=CC[C@@H]3C(C(=O)OC)=CO[C@@H](O)[C@H]23)nn1,SK-N-SH,"neuroprotection, MTT","0.3 µM, 24 h, together with: 250 µM H2O2",,viability,60.8 ± 0.6%
Cc1cc(C)c(-n2ccn(-c3c(C)cc(C)cc3C)c2=[Se])c(C)c1.[Cl][Ag],LoVo-OXP colon cancer cells,MTT,,baseline: LoVo-OXP over LoVo IC50,resistance factor,0.3
c1ccc2c(Nc3c4c(nc5ccccc35)CCCC4)cccc2c1,SH-SY5Y,MTT,"50 µM, 1 h pretreatment, 10% FBS, together with: H2O2",,viability,37.3 ± 4.23%
CC=C(C)C(=O)OC1C2C3(C)CCC(OC4CC(OC)C(OC5OC(C)C(O)C(OC)C5O)C(C)O4)CC3CCC23OC32CCC(C(C)=O)C2(C)C1OC(C)=O (centres unmarked),MDA435/LCC6-MDR1,"cell growth, MDR reversal, SRB","10 µM, together with: paclitaxel",baseline: paclitaxel alone over combination,fold reversal of IC50,4
[Cl][Ag].[Se]=c1n(C2CCCCC2)ccn1C1CCCCC1,A2780,"cell growth or viability, MTT",72 h,,IC50,3.1 µM
F[P-](F)(F)(F)(F)F.F[P-](F)(F)(F)(F)F.[Ru+2].c1ccc(-c2ccccn2)nc1.c1ccc(-c2ccccn2)nc1.c1csc(-c2ccc(-c3ccc(-c4cc5cccnc5c5ncccc45)s3)s2)c1,SK-MEL-28,cell viability,red light 625 nm,baseline: dark EC50 over light EC50,phototherapeutic index,25
COc1ccc2c(c1)C1CC(C)(N2)c2c(C)nc3ccc(OC)cc3c21 (centres unmarked),HEK293,,,baseline: CC50 HEK293 over INDO IC50,selectivity index,> 165
COc1ccccc1/C=C/[N+](=O)[O-],THP-2,cell viability,"72 h, FBS 1%",,CC50,1.23 ± 0.14 µM
Cc1nc(C)c(C=[N+]([O-])C(C)(C)C)nc1C,rat primary midbrain neurons,MTT,"100 µM, together with: MPP+",,cell survival increase,16.6%
Cc1ccc(CNc2c(NC3CCN(Cc4ccccc4)CC3)c(=O)c2=O)cc1,SH-SY5Y,"neuroprotection, MTT","12.5 µM, 24 h pretreatment, together with: H2O2 650 µM for 4 h",,cell survival,58.9%
CC(C)C[C@H](NC(=O)[C@H](CO)NC(=O)[C@H](Cc1c[nH]c2ccccc12)NC(=O)[C@H](Cc1ccccc1)NC(=O)[C@H](Cc1ccccc1)NC(=O)[C@H](CCC(N)=O)NC(=O)[C@@H]1CCCN1C(=O)[C@H](CCCNC(=N)N)NC(=O)[C@H](CCCNC(=N)N)NC(=O)[C@H](CCCNC(=N)N)NC(=O)[C@H](CCC(N)=O)NC(=O)[C@H](CCCNC(=N)N)NC(=O)[C@H](CCCNC(=N)N)NC(=O)[C@H](CCCCN)NC(=O)[C@H](CCCCN)NC(=O)[C@H](CCCNC(=N)N)NC(=O)CNC(=O)[C@@H](N)Cc1ccc(O)cc1)C(=O)N[C@@H](CS)C(=O)N[C@H](C(=O)N[C@@H](C)C(=O)O)[C@@H](C)O,Jurkat,trypan blue exclusion,"7.5 µM, 17 h, together with: zVAD-fmk 20 µM 30 min pretreatment",,viable cells,11%
CCCCCCCCCCCCCC(=O)NCC(=O)N[C@@H](CCCNC(=N)N)C(=O)N[C@@H](Cc1c[nH]c2ccccc12)C(=O)N[C@@H](CCCCN)C(=O)N[C@H](C(=O)N[C@@H](Cc1ccccc1)C(=O)N[C@@H](CCCCN)C(=O)N[C@@H](CCCCN)C(=O)N[C@H](C(=O)N[C@@H](CCC(=O)O)C(=O)N[C@@H](CCCCN)C(=O)N[C@H](C(=O)NCC(=O)N[C@@H](CCC(N)=O)C(=O)N[C@@H](CC(N)=O)C(=O)N[C@H](C(=O)N[C@@H](CCCNC(=N)N)C(=O)N[C@@H](CC(=O)O)C(=O)NCC(=O)N[C@H](C(=O)N[C@H](C(=O)N[C@@H](CCCCN)C(=O)N[C@@H](C)C(=O)NCC(=O)N1CCC[C@H]1C(=O)N[C@@H](C)C(=O)N[C@H](C(=O)N[C@@H](C)C(=O)N[C@H](C(=O)N[C@H](C(=O)NCC(=O)N[C@@H](CCC(N)=O)C(=O)N[C@@H](C)C(=O)N[C@@H](C)C(=O)N[C@H](C(=O)N[C@H](C(N)=O)[C@@H](C)CC)[C@@H](C)O)C(C)C)C(C)C)C(C)C)C(C)C)[C@@H](C)CC)[C@@H](C)CC)C(C)C)[C@@H](C)CC)[C@@H](C)CC,Jurkat,western blot,"concentration not given, 16 h",,Bax protein level,increased
COc1cc(C(=O)NCCOCCOCCOCCNC(=O)c2ccc([18F])nc2)ccc1NC(=O)C1NC(CC(C)(C)C)C(C#N)(c2ccc(Cl)cc2F)C1c1cccc(Cl)c1F (centres unmarked),HepG2,,1 h,,maximal uptake,559 ± 23 %/mg protein
COC(=O)C1=CO[C@@H](OC(C)=O)[C@@H]2C(Cn3cc(COCc4ccccc4)nn3)=CC[C@H]12,SK-N-SH,"neuroprotection, MTT","0.075 µM, 24 h, together with: 250 µM H2O2",,viability,79.7 ± 0.4%
C1=CCCC=CCC1.F[P-](F)(F)(F)(F)F.[Pt+][c]1ccccc1P(=Nc1ccccc1)(c1ccccc1)c1ccccc1,Jurkat,flow cytometry,"0.5 µM, 6 h",,dead cells,~100%
Cc1cccc(C)c1OCC(=O)N[C@@H](Cc1ccccc1)[C@H](C[C@H](Cc1ccccc1)NC(=O)[C@H](C(C)C)N1CCCNC1=O)OC(=O)[C@H](CC(C)C)NC(=O)[C@@H](N)Cc1cnc[nH]1,cell line,"transport, inhibitor","25 µM, together with: [3H]-L-histidine",baseline: untreated,remaining uptake,~30%
COC(=O)C1=CO[C@@H](O)[C@@H]2C(Cn3cc(-c4ccc(F)cc4)nn3)=CC[C@H]12,SK-N-SH,"neuroprotection, MTT","0.3 µM, 24 h, together with: 250 µM H2O2",,viability,55.9 ± 1.1%
CSCC[C@H](NC(=O)[C@H](CC(C)C)NC(=O)[C@H](Cc1c[nH]cn1)NC(=O)CNC(=O)[C@@H](NC(=O)[C@H](C)NC(=O)[C@H](Cc1c[nH]c2ccccc12)NC(=O)[C@H](CCC(N)=O)NC(=O)CCCCCNC(=O)CCN(CCNC(=O)c1ccc(F)cc1)CCC(=O)NCCCC[C@@H]1NC(=O)[C@@H](Cc2ccc(O)cc2)NC(=O)[C@H](CC(=O)O)NC(=O)CNC(=O)[C@H](CCCNC(=N)N)NC1=O)C(C)C)C(N)=O [fluorine-18 labelled],PC-3,,"15 min, 37 °C",baseline: added radioactivity,cellular uptake,3.9 ± 0.16%
FC(F)(F)c1ccc(Nc2c3c(nc4ccccc24)CCCC3)cc1,SH-SY5Y,MTT,"50 µM, 1 h pretreatment, 10% FBS, together with: H2O2",,viability,47.6%
[Cl][Au-]1([Cl])[c]2ccccc2P(c2ccccc2)(c2ccccc2)=[N+]1c1ccccc1,Jurkat Bak knockdown,refers to: annexin V and low ΔΨm,"concentration not given, 24 h",,apoptotic cells,~20%
COC(=O)C1=CO[C@@H](OC(C)=O)[C@@H]2C(Cn3cc(CN(C)Cc4ccccc4)nn3)=CC[C@H]12,SK-N-SH,"neuroprotection, MTT","0.075 µM, 24 h, together with: 250 µM H2O2",,viability,50.8%
Cc1cccc(Nc2c3c(nc4ccccc24)CCCC3)n1,SH-SY5Y,MTT,"50 µM, 1 h pretreatment, 10% FBS, together with: H2O2",,viability,70.3 ± 4.51%

# For quick reference, copied from above:
SMILES,cell line,test,setting,how to read,quantity,value
CC1(C(=O)O)CCCC2(C)C1CCC1(C)c3cocc3CCC12 (centres unmarked),LNCaP,"qRT-PCR, refers to: AR","10 µM, absence of androgen",,mRNA level,decreased
CN1C(=O)C2(Cc3ccc(CC45SSC(CO)(C(=O)N4C)N(C)C5=O)cc3)SSC1(CO)C(=O)N2C (racemic),MCF7 cells,microarray,"600 nM, fold change at least 2.0, together with: DFO 300 µM",baseline: DFO alone,number of up-regulated transcripts,290
COC(=O)C1=CO[C@@H](OC(C)=O)[C@@H]2C(Cn3cc(CCO[Si](C)(C)C(C)(C)C)nn3)=CC[C@H]12,SK-N-SH,"neuroprotection, MTT","0.15 µM, 24 h, together with: 250 µM H2O2",,viability,68.6 ± 0.15%
